Assay results from different studies.
A part holds a random share of what one study measured.
UniProt P42336, sequence (whole entry, unmodified, looked up): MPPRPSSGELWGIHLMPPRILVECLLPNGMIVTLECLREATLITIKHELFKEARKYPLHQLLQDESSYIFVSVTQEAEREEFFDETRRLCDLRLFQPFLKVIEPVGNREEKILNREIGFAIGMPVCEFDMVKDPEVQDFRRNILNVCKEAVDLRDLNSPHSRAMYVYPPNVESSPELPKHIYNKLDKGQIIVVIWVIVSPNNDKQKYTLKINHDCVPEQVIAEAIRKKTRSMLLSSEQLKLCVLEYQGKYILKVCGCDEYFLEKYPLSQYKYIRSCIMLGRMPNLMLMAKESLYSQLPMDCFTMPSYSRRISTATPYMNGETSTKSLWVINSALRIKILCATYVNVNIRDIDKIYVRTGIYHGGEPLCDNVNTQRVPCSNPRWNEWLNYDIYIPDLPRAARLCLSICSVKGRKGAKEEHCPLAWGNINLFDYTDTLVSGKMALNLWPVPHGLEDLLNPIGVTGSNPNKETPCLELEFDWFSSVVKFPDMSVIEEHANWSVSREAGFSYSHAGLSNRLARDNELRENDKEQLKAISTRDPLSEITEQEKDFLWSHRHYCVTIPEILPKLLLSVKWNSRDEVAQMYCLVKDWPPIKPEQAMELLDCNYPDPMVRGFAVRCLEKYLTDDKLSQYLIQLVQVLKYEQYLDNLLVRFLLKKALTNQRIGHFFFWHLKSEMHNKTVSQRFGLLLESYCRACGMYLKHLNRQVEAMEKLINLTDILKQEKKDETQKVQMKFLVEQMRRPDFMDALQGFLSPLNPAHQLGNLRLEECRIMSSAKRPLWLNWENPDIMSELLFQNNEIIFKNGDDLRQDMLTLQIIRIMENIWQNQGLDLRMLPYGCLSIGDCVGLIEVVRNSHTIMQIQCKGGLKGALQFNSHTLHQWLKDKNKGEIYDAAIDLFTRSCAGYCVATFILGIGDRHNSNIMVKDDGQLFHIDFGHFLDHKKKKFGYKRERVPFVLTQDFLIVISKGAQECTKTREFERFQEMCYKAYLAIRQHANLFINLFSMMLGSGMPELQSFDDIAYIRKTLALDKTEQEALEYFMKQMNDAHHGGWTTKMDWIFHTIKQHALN
UniProt P45985, sequence (whole entry, looked up): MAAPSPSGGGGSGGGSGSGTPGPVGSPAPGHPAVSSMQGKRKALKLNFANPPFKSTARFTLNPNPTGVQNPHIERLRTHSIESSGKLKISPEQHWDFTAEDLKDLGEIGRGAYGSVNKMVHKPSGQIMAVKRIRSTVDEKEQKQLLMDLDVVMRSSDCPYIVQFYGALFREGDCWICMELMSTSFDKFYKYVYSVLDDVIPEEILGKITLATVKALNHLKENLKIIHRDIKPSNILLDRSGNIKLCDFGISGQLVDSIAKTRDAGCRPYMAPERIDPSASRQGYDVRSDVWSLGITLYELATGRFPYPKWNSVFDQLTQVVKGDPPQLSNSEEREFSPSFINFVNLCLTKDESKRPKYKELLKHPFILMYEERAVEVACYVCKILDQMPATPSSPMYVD
UniProt Q9BYP7, sequence (whole entry, looked up): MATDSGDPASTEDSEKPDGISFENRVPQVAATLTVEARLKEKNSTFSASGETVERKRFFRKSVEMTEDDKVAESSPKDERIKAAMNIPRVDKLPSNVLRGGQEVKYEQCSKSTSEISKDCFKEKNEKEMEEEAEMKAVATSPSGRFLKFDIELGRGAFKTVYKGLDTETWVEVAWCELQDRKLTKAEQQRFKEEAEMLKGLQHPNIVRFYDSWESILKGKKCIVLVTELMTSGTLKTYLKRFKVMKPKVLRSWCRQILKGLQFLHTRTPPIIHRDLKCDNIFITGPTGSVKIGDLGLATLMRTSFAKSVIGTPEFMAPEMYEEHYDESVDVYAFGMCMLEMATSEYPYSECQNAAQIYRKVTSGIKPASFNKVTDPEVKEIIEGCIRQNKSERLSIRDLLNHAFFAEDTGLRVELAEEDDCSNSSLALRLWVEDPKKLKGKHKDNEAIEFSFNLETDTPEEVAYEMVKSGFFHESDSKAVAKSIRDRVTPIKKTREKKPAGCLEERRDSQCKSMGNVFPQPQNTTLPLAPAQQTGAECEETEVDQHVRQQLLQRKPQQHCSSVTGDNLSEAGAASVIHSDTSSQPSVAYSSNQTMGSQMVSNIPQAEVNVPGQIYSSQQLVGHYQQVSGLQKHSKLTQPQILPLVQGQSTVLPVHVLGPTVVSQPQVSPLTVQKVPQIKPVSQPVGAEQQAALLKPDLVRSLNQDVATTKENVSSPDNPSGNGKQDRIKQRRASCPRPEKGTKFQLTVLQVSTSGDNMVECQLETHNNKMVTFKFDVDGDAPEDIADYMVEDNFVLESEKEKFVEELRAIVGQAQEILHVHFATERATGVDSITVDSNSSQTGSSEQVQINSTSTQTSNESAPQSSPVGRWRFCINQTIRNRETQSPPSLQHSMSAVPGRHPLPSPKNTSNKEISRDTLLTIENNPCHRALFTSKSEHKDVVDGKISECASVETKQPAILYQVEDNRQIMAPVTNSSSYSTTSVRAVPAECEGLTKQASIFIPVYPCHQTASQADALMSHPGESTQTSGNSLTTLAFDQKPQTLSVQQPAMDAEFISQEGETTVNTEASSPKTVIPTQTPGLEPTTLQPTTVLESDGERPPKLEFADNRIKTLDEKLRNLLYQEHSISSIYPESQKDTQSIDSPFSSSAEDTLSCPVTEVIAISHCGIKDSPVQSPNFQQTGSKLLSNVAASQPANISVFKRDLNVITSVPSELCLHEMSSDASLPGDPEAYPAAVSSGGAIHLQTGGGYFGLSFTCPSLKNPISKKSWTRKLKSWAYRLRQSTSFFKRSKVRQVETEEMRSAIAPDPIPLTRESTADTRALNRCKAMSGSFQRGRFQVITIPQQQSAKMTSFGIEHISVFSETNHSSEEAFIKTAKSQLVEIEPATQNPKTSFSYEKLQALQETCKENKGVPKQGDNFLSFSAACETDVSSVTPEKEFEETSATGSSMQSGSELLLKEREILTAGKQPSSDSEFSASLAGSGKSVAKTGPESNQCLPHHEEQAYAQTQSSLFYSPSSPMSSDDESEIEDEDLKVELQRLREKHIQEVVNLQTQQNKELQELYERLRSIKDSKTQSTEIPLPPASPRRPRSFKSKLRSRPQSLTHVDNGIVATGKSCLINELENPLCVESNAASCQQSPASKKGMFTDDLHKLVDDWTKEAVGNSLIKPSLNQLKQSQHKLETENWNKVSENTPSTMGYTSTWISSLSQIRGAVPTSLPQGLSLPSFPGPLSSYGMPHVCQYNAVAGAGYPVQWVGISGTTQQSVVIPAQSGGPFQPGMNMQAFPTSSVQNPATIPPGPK
UniProt Q9HBH9, sequence (whole entry, looked up): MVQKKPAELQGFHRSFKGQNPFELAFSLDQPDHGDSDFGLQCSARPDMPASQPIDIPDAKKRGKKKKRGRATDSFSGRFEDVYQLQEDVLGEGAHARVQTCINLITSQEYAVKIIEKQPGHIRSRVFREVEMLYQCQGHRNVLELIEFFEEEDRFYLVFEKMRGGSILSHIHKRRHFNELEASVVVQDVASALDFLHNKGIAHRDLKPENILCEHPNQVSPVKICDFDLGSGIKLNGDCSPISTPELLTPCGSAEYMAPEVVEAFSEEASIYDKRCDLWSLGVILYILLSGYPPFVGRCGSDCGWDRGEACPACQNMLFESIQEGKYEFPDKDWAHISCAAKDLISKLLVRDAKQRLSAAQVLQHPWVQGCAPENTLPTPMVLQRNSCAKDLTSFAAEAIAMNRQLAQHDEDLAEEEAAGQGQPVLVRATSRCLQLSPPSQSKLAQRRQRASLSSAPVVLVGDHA
UniProt Q13873, sequence (whole entry, looked up): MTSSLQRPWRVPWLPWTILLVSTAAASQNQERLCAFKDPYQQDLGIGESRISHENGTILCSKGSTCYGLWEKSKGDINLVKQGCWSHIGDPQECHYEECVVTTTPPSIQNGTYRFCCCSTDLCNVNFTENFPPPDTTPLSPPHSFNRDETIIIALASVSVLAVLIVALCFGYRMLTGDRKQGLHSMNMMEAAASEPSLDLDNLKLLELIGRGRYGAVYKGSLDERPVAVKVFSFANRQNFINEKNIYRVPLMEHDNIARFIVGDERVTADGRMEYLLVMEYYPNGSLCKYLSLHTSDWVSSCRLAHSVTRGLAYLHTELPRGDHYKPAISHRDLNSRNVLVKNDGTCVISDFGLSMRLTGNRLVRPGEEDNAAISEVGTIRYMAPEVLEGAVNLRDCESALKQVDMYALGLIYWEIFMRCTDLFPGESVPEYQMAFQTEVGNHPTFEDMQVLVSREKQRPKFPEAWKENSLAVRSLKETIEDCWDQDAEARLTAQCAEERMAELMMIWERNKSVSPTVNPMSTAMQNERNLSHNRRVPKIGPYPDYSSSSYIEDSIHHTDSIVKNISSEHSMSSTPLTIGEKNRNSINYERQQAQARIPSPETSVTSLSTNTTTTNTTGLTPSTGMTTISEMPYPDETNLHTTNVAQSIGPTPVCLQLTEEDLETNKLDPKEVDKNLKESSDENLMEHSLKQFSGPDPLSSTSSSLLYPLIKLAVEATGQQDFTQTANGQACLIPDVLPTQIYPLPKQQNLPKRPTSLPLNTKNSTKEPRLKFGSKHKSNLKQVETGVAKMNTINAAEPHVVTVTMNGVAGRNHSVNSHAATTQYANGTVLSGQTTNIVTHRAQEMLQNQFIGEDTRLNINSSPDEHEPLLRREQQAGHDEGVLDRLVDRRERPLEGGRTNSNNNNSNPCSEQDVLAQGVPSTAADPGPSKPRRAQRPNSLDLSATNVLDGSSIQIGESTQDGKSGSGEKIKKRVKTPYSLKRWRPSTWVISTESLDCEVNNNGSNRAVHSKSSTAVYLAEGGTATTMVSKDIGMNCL

Set 1 — observed: binding; concentration: 1 µM; measurement: remaining binding
Structure (SMILES): CN1CCN(C(=O)c2ccc(NC(=O)Nc3ccc(N(C)c4ccnc(Nc5ccc(CS(C)(=O)=O)cc5)n4)cc3)cc2)CC1
Phosphatidylinositol 4,5-bisphosphate 3-kinase catalytic subunit alpha isoform (PIK3CA, Homo sapiens, UniProt P42336, H1047L): 96%
Serine/threonine-protein kinase SIK1 (SIK1, Homo sapiens, UniProt P57059); competition with immobilised ligand: 92%
Dual specificity mitogen-activated protein kinase kinase 4 (MAP2K4, Homo sapiens, UniProt P45985): 6%
Epidermal growth factor receptor (EGFR, Homo sapiens, UniProt P00533, T790M): 54%
Hepatocyte growth factor receptor (MET, Homo sapiens, UniProt P08581, M1250T): 2.2%
Serine/threonine-protein kinase MARK1 (MARK1, Homo sapiens, UniProt Q9P0L2): 44%
Tyrosine-protein kinase ABL1 (ABL1, Homo sapiens, UniProt P00519, M351T): 20%
Serine/threonine-protein kinase pim-3 (PIM3, Homo sapiens, UniProt Q86V86): 100%
Protein kinase C eta type (PRKCH, Homo sapiens, UniProt P24723): 100%
Receptor-type tyrosine-protein kinase FLT3 (FLT3, Homo sapiens, UniProt P36888, D835H): 0.8%

Set 2 — host: human; matrix: microsomes or S9; concentration: 2 µM; time: 0.5 h; measurement: remaining compound
O=S(=O)(CCc1ccccc1)NCCc1csc2nc(-c3ccccc3F)nn12: 2.69%
Cn1ccc(-c2cnc(-c3cc(F)ccc3[N+](=O)[O-])nc2)n1: > 99.9%
COc1ccc(-c2[nH]ncc2C(=O)Nc2n[nH]c3cc(Br)ccc23)cc1: 54.4%
O=c1[nH]c2cc(-c3noc(-c4ccc(F)c(F)c4)n3)ccc2n1C1CCCC1: > 99.9%
CN(Cc1ccccc1N1CCCCC1)S(=O)(=O)c1cn(C)c(=O)n(C)c1=O: 3.37%
Cn1nc(C2CCCN2C(=O)COc2ccc(F)cc2)c2c1CCOC2 (centres unmarked): 65.8%
Cc1sc(C(=O)O)cc1S(=O)(=O)N1CCCC2(CCS(=O)(=O)C2)C1 (centres unmarked): > 100%
Cc1ccc(N(CC(O)CN2CCCCC2)S(=O)(=O)c2ccc3ccccc3c2)cc1 (centres unmarked): 6.17%
COC(=O)c1scc2c(NCCc3ccc(F)cc3)c(C(C)=O)c(=O)[nH]c12: 0.282%
COc1cc(=O)n2c(c1C(=O)NCc1ccccc1C(F)(F)F)CCCC2: 0.959%
Cn1cnc2cc(N3CC(=O)C(c4nc(-c5ccccc5)cs4)=C3N)ccc21: 79.5%

Set 3 — observed: cell-free assay; method: competition with immobilised ligand; concentration: 1 µM; measurement: remaining binding
SMILES: Nc1cnc(N2CCc3cc(S(=O)(=O)Nc4c(F)cc(Cl)cc4F)cc(N4CCCC4=O)c32)nc1
Mitogen-activated protein kinase kinase kinase 19 (MAP3K19, Homo sapiens, UniProt Q56UN5): 100%
Phosphatidylinositol 4,5-bisphosphate 3-kinase catalytic subunit alpha isoform (PIK3CA, Homo sapiens, UniProt P42336, Q546K): 78%
MAP kinase-interacting serine/threonine-protein kinase 2 (MKNK2, Homo sapiens, UniProt Q9HBH9): 100%
Serine/threonine-protein kinase MRCK beta (CDC42BPB, Homo sapiens, UniProt Q9Y5S2): 95%
Serine/threonine-protein kinase STK11 (STK11, Homo sapiens, UniProt Q15831): 100%
RAC-beta serine/threonine-protein kinase (AKT2, Homo sapiens, UniProt P31751): 100%
Serine/threonine-protein kinase haspin (HASPIN, Homo sapiens, UniProt Q8TF76): 100%
Serine/threonine-protein kinase 36 (STK36, Homo sapiens, UniProt Q9NRP7): 98%
MAP/microtubule affinity-regulating kinase 4 (MARK4, Homo sapiens, UniProt Q96L34): 79%
Mitogen-activated protein kinase kinase kinase 1 (MAP3K1, Homo sapiens, UniProt Q13233): 100%
Non-receptor tyrosine-protein kinase TYK2, JH1 (TYK2, Homo sapiens, UniProt P29597): 100%
Serine/threonine-protein kinase WNK3 (WNK3, Homo sapiens, UniProt Q9BYP7): 100%
Glycogen synthase kinase-3 beta (GSK3B, Homo sapiens, UniProt P49841): 100%
Mitogen-activated protein kinase kinase kinase kinase 2 (MAP4K2, Homo sapiens, UniProt Q12851): 90%
Cyclin-dependent kinase 11A (CDK11A, Homo sapiens, UniProt Q9UQ88): 89%
Receptor-type tyrosine-protein kinase FLT3 (FLT3, Homo sapiens, UniProt P36888, D835V/ITD): 100%
Bone morphogenetic protein receptor type-2 (BMPR2, Homo sapiens, UniProt Q13873): 100%
Cyclin-dependent kinase 13 (CDK13, Homo sapiens, UniProt Q14004): 100%
Maternal embryonic leucine zipper kinase (MELK, Homo sapiens, UniProt Q14680): 90%

Other studies, line by line
CCC[C@@H]1NC(=O)CSC[C@@H](C(=O)OCC)N(C)C(=O)[C@H](CC(C)C)NC(=O)[C@@H](C)N(C)C(=O)[C@H](CC(C)C)NC(=O)[C@H](C)N(C)C(=O)[C@H]2CCCN2C(=O)[C@H](CC(C)C)NC(=O)CN(CCC)C1=O — logD (hydrocarbon/water): 1.44

A few entries again (set 2):
Cc1sc(C(=O)O)cc1S(=O)(=O)N1CCCC2(CCS(=O)(=O)C2)C1 (centres unmarked): > 100%
Cc1ccc(N(CC(O)CN2CCCCC2)S(=O)(=O)c2ccc3ccccc3c2)cc1 (centres unmarked): 6.17%
COC(=O)c1scc2c(NCCc3ccc(F)cc3)c(C(C)=O)c(=O)[nH]c12: 0.282%
COc1cc(=O)n2c(c1C(=O)NCc1ccccc1C(F)(F)F)CCCC2: 0.959%
